Assay results of several laboratories.
Each numbered part is a random draw from the data of one study; scales do not carry over between parts. Several values in a cell are separate wells, animals, samples, runs or records.
Sequence of UniProt O75116 (whole entry, looked up): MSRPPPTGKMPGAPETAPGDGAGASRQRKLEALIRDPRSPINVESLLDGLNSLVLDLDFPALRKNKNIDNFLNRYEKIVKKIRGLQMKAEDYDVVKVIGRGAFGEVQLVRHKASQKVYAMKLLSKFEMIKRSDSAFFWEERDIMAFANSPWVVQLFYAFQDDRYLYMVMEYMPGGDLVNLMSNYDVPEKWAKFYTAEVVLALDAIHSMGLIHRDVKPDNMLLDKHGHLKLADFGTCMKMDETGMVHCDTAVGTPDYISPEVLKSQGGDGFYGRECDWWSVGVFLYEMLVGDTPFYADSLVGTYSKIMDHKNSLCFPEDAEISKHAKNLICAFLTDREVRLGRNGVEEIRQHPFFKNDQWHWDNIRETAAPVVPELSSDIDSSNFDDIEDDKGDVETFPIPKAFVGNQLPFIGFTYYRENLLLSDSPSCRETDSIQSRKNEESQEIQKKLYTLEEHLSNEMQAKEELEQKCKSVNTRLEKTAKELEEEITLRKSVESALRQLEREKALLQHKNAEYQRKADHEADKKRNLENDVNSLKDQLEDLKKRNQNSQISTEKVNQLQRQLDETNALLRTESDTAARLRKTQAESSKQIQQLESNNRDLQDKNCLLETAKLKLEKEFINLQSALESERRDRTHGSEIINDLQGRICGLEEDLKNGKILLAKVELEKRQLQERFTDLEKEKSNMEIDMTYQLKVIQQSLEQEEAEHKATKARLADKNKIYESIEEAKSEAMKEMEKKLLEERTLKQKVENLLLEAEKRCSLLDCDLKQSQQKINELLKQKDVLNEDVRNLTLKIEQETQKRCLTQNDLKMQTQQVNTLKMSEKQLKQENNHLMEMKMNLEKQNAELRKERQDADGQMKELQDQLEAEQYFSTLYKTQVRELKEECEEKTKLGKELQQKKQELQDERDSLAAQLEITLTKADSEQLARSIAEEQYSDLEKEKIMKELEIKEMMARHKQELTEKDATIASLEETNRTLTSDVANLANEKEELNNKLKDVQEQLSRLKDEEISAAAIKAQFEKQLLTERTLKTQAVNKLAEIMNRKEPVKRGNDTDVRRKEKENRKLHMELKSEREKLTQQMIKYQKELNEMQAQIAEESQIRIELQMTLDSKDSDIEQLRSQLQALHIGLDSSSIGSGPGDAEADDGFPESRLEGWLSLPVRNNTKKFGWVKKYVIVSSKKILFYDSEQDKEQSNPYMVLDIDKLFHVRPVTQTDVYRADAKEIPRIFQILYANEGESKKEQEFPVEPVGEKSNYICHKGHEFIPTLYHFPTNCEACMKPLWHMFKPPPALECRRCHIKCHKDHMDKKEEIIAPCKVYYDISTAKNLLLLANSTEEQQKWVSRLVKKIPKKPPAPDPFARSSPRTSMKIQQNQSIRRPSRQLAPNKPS
Sequence of UniProt P50613 (whole entry, looked up): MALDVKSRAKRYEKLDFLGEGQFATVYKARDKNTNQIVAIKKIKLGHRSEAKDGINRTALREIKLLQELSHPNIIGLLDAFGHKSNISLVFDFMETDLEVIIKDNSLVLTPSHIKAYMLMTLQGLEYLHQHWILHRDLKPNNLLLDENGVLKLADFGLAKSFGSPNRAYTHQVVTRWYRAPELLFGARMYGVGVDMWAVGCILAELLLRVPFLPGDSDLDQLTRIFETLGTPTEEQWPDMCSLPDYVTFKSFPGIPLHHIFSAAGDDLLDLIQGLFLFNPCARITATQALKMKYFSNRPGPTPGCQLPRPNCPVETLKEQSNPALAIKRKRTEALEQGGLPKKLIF
Sequence of UniProt Q8TD19 (whole entry, looked up): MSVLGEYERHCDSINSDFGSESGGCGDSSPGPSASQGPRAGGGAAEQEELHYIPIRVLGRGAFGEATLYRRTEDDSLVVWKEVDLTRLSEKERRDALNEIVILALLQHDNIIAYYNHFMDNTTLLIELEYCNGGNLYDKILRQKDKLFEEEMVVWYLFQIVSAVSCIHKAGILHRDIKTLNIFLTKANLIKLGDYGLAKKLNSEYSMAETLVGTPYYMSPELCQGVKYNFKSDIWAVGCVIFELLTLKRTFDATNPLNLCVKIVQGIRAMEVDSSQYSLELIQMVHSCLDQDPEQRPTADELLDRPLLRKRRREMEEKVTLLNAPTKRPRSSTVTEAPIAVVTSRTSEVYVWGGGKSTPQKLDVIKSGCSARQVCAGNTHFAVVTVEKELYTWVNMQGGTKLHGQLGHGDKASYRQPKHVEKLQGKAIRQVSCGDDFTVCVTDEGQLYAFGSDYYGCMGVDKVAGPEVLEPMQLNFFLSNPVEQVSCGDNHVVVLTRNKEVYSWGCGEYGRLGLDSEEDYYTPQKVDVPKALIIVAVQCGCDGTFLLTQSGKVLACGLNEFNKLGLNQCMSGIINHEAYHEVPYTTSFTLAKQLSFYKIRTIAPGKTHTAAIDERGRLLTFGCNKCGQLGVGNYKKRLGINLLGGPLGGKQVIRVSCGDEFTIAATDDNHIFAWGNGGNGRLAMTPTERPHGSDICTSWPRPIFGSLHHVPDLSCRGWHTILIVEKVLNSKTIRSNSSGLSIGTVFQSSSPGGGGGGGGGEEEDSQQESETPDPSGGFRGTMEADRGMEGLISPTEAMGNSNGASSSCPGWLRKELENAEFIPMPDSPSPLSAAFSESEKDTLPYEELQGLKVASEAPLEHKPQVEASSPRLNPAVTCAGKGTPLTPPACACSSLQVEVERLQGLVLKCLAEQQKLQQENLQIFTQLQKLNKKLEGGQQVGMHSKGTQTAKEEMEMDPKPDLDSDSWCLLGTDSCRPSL
Sequence of UniProt P53779 (whole entry, looked up): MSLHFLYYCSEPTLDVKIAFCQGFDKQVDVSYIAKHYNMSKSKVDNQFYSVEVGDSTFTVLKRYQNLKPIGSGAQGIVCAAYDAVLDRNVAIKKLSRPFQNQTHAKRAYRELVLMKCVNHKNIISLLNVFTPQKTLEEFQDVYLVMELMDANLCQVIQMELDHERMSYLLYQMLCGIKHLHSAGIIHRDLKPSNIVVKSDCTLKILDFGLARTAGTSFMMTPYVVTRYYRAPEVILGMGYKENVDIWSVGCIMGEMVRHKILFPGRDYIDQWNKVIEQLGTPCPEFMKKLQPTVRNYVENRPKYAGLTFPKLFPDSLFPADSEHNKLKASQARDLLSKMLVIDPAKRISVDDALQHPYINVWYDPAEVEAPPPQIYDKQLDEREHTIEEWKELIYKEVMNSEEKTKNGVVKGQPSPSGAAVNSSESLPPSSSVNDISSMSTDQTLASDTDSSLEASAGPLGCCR
Sequence of UniProt Q12852 (whole entry, looked up): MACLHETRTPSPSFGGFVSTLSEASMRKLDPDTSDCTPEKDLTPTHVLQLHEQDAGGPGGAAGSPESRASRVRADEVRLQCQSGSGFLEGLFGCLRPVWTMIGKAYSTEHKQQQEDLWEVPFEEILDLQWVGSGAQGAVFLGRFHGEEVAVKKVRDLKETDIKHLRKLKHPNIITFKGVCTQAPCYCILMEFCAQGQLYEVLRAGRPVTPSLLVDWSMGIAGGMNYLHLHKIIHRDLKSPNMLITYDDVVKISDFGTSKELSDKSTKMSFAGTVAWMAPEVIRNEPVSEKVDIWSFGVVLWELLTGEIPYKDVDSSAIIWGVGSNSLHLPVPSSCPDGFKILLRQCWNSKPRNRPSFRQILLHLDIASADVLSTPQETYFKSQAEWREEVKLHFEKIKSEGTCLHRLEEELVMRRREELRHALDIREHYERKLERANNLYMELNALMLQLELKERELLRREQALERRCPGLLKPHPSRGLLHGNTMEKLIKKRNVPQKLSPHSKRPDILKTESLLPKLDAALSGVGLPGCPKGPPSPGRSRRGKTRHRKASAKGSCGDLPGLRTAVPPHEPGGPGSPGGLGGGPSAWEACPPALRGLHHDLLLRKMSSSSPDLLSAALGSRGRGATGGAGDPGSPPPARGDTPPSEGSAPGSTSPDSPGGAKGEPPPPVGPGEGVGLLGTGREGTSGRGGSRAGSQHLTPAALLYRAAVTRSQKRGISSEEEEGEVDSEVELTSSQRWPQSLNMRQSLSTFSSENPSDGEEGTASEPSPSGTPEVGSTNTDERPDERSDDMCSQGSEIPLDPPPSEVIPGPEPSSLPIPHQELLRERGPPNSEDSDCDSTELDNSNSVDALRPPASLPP
Sequence of UniProt P32298 (whole entry, looked up): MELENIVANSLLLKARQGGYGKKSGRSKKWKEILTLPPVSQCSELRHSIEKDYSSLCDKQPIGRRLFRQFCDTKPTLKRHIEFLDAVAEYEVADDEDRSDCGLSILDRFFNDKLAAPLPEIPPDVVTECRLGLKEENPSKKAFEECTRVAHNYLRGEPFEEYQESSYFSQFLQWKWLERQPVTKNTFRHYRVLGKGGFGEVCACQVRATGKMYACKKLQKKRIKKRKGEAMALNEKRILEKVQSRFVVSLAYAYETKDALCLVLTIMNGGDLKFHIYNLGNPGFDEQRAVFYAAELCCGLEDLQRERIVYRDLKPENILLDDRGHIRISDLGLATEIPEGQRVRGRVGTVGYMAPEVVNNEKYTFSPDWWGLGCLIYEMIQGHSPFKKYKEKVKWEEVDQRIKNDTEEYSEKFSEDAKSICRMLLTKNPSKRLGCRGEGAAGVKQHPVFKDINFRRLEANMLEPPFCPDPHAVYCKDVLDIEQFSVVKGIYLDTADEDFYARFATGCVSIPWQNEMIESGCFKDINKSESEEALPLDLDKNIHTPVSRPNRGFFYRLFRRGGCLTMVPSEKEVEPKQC
Sequence of UniProt Q96Q40 (whole entry, looked up): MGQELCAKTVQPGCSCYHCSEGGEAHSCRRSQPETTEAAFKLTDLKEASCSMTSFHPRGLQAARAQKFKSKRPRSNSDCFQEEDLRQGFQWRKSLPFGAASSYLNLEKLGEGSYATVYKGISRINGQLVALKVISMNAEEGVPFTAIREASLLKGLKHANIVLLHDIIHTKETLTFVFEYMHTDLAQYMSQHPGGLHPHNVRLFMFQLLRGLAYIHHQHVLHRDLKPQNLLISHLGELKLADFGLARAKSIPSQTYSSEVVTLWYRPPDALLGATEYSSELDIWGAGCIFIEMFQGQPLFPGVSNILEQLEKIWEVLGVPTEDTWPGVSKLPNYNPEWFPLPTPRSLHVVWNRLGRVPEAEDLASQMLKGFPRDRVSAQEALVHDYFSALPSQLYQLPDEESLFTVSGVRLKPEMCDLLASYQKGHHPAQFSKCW

Block 1
Structure (SMILES): c1ccc(-c2[nH]ncc2-c2ccnc3ccccc23)nc1
Read-out: enzyme activity
Mode: inhibitor
Concentration: 0.5 µM
Baseline: control
CSNK2A2 (Homo sapiens, UniProt P19784) — remaining activity: 96.7%.
MAPK10 (Homo sapiens, UniProt P53779) — remaining activity: 92.9%.
It gave 100% for remaining activity (CAMK1D (Homo sapiens, UniProt Q8IU85)).
It gave 94.7% for remaining activity (NEK9 (Homo sapiens, UniProt Q8TD19)).
The remaining activity was 97% (HIPK3 (Homo sapiens, UniProt Q9H422)).
BRSK1 (Homo sapiens, UniProt Q8TDC3) — remaining activity: 99%.
EGFR (Homo sapiens, UniProt P00533) — remaining activity: 81.8%.
CDK7 (Homo sapiens, UniProt P50613) — remaining activity: 104%.
MAP3K8 (Homo sapiens, UniProt P41279) — remaining activity: 91.1%.
Aurora kinase A (AURKA, Homo sapiens, UniProt O14965) — remaining activity: 95.4%.
The remaining activity was 91.4% (PKN2 (Homo sapiens, UniProt Q16513)).
CAMK1G (Homo sapiens, UniProt Q96NX5) — remaining activity: 102%.
PTK2B (Homo sapiens, UniProt Q14289) — remaining activity: 96.1%.
DMPK (Homo sapiens, UniProt Q09013) — remaining activity: 106%.
It gave 91.2% for remaining activity (MAP3K2 (Homo sapiens, UniProt Q9Y2U5)).
NTRK3 (Homo sapiens, UniProt Q16288) — remaining activity: 92.7%.
It gave 93.8% for remaining activity (RET (Homo sapiens, UniProt P07949)).
The remaining activity was 104% (DYRK4 (Homo sapiens, UniProt Q9NR20)).
For GRK5 (Homo sapiens, UniProt P34947): remaining activity read 109%.
For Cyclin-dependent kinase 2, with cyclin A (CDK2, Homo sapiens, UniProt P24941): remaining activity read 98.7%.
The remaining activity was 100% (ROCK2 (Homo sapiens, UniProt O75116)).
PRKD1 (Homo sapiens, UniProt Q15139) — remaining activity: 63%.
The remaining activity was 104% (SLK (Homo sapiens, UniProt Q9H2G2)).
The remaining activity was 102% (ROS1 (Homo sapiens, UniProt P08922)).

Block 2
Compound: CC#CC(=O)N1CCC[C@H]1c1nc(-c2ccc(C(=O)Nc3ccccn3)cc2)c2c(N)nccn12
Read-out: enzyme activity
Mode: inhibitor
Concentration: 1 µM
For RIOK3 (Homo sapiens, UniProt O14730): inhibition read 66%.
The inhibition was 3% (SGK1 (Homo sapiens, UniProt O00141)).
For LRRK2 (Homo sapiens, UniProt Q5S007): inhibition read 0%.
It gave 7% for inhibition (MAP4K5 (Homo sapiens, UniProt Q9Y4K4)).
For NEK4 (Homo sapiens, UniProt P51957): inhibition read 0%.
It gave 0% for inhibition (IRAK3 (Homo sapiens, UniProt Q9Y616)).
The inhibition was 0% (MAPK15 (Homo sapiens, UniProt Q8TD08)).
The inhibition was 0% (FLT3 (Homo sapiens, UniProt P36888, D835Y)).
The inhibition was 17% (GRK4 (Homo sapiens, UniProt P32298)).
The inhibition was 26% (KIT (Homo sapiens, UniProt P10721)).
The inhibition was 0% (CAMK2B (Homo sapiens, UniProt Q13554)).
For MYLK4 (Homo sapiens, UniProt Q86YV6): inhibition read 1%.
The inhibition was 35% (PIK3CA (Homo sapiens, UniProt P42336, E542K)).
The inhibition was 51% (NTRK1 (Homo sapiens, UniProt P04629)).

Block 3
SMILES: Cc1c(C(=O)O)cc(-c2ccc(C3CCNCC3)cc2)c2ccc(-c3ccc(C(F)(F)F)cc3)cc12
Method: competition with immobilised ligand
Concentration: 1 µM
For MAP3K12 (Homo sapiens, UniProt Q12852); binding: remaining binding read 100%.
The remaining binding was 89% (ROCK2 (Homo sapiens, UniProt O75116); binding).
STK39 (Homo sapiens, UniProt Q9UEW8); binding — remaining binding: 100%.
For Cyclin-dependent kinase 4, with cyclin D3 (CDK4, Homo sapiens, UniProt P11802); binding: remaining binding read 100%.
It gave 100% for remaining binding (BUB1 (Homo sapiens, UniProt O43683); binding).
The remaining binding was 100% (PIK3C2B (Homo sapiens, UniProt O00750); cell-free assay).
It gave 100% for remaining binding (Ribosomal protein S6 kinase alpha-3, N-terminal kinase domain (RPS6KA3, Homo sapiens, UniProt P51812); binding).
MAP3K4 (Homo sapiens, UniProt Q9Y6R4); binding — remaining binding: 100%.
CAMK2A (Homo sapiens, UniProt Q9UQM7); cell-free assay — remaining binding: 100%.
MAP3K6 (Homo sapiens, UniProt O95382); binding — remaining binding: 100%.
It gave 100% for remaining binding (HIPK2 (Homo sapiens, UniProt Q9H2X6); binding).
It gave 93% for remaining binding (TESK1 (Homo sapiens, UniProt Q15569); binding).
Tyrosine-protein kinase JAK3, JH1 (JAK3, Homo sapiens, UniProt P52333); binding — remaining binding: 100%.
It gave 100% for remaining binding (CDK15 (Homo sapiens, UniProt Q96Q40); binding).
The remaining binding was 100% (CAMKK1 (Homo sapiens, UniProt Q8N5S9); binding).
The remaining binding was 100% (CILK1 (Homo sapiens, UniProt Q9UPZ9); binding).
For Tyrosine-protein kinase ABL1, non-phosphorylated (ABL1, Homo sapiens, UniProt P00519, T315I); binding: remaining binding read 82%.
For MAP2K7 (Homo sapiens, UniProt O14733); binding: remaining binding read 100%.
PIK3CD (Homo sapiens, UniProt O00329); cell-free assay — remaining binding: 100%.
PIKFYVE (Homo sapiens, UniProt Q9Y2I7); cell-free assay — remaining binding: 100%.
For IRAK1 (Homo sapiens, UniProt P51617); binding: remaining binding read 100%.
It gave 100% for remaining binding (EPHB1 (Homo sapiens, UniProt P54762); cell-free assay).
For EGFR (Homo sapiens, UniProt P00533, G719S); cell-free assay: remaining binding read 94%.
It gave 100% for remaining binding (MAP3K14 (Homo sapiens, UniProt Q99558); binding).
For PRKCD (Homo sapiens, UniProt Q05655); cell-free assay: remaining binding read 100%.

Block 4
Target: GTPase HRas (HRAS, Homo sapiens, UniProt P01112)
Read-out: binding
Method: NanoBRET
Cells: HEK293 (live)
Concentration: 1.523 µM
Direction: lower = stronger binding
The target engagement of `CC(=O)N1CCN(c2nc(OC[C@@H]3CCCN3C)nc3c2CCN(c2cccc4cccc(Cl)c24)C3)C[C@@H]1CC#N` is reported as 120% and 141% and 116%.
`CN1CCC[C@H]1COc1nc2c(c(N3CCN(S(C)(=O)=O)[C@@H](CC#N)C3)n1)CCN(c1cccc3cccc(Cl)c13)C2` gave a target engagement of 81.7% and 83.1% and 111%.
The target engagement of `CC(C)C(=O)N1CCN(c2nc(OC[C@@H]3CCCN3C)nc3c2CCN(c2cccc4cccc(Cl)c24)C3)C[C@@H]1CC#N` is reported as 147% and 153% and 132%.
The target engagement of `CCC(=O)N1CCN(c2nc(OC[C@@H]3CCCN3C)nc3c2CCN(c2cccc4cccc(Cl)c24)C3)C[C@@H]1CC#N` is reported as 132% and 156% and 121%.

A few entries again (block 3):
PIK3CD (Homo sapiens, UniProt O00329); cell-free assay — remaining binding: 100%.
It gave 93% for remaining binding (TESK1 (Homo sapiens, UniProt Q15569); binding).
CAMK2A (Homo sapiens, UniProt Q9UQM7); cell-free assay — remaining binding: 100%.
For MAP3K12 (Homo sapiens, UniProt Q12852); binding: remaining binding read 100%.
For EGFR (Homo sapiens, UniProt P00533, G719S); cell-free assay: remaining binding read 94%.
